Measurements of several laboratories.
Every numbered part comes from another study and shows a few of its results, in no order. Changes are numbered by the printed parent chain.

Set 1
Target: CCNF, cyclin fold, Cln2 fusion (human)
Technique: yeast growth competition, sequencing
Sample: yeast
Setting: weak parent motif
Baseline: not given
Reading: higher = stronger binding
Parent: MASTL docking peptide (human); PMIAKNLMCELDE
`E10P`: “normalised enrichment score” -0.0828.
`K5G`: “normalised enrichment score” -0.444.
For `D12L`, “normalised enrichment score” read -0.177.
`E10K` — result for “normalised enrichment score”: 0.129.
Under “normalised enrichment score”, `A4R` is recorded as 0.489.
Under “normalised enrichment score”, `I3M` is recorded as -0.312.
`C9N`: “normalised enrichment score” -0.0826.
For `A4D`, “normalised enrichment score” read -0.192.
`M8Q` — result for “normalised enrichment score”: -0.0638.
Under “normalised enrichment score”, `L11A` is recorded as 0.15.
For `M2T`, “normalised enrichment score” read 0.0508.
Under “normalised enrichment score”, `C9R` is recorded as 0.295.
For `D12V`, “normalised enrichment score” read 0.509.
Under “normalised enrichment score”, `L11R` is recorded as 0.0854.
For `A4C`, “normalised enrichment score” read 0.272.
`M8A`: “normalised enrichment score” -0.417.

Set 2
Target: NFE2, bZIP domain (human)
Technique: DHFR protein complementation
Sample: yeast
Setting: single substitutions, most at no-binding floor
Baseline: wild-type JUN-FOS pair
Reading: higher = stronger binding
Parent: JUN, bZIP domain (human); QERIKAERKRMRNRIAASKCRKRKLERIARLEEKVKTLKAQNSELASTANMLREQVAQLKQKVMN; partner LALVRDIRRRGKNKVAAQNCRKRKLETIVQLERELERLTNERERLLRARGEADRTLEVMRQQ
With `T37K` the binding fitness was -1.39 natural log.
The binding fitness of `S43I` is reported as -1.46 natural log.
`R53F` has a binding fitness of -1.45 natural log.
With `N42G` the binding fitness was -1.5 natural log.
With `E32G` the binding fitness was -1.45 natural log.
With `A49G` the binding fitness was -1.45 natural log.
`E54S` has a binding fitness of -1.26 natural log.
With `A29E` the binding fitness was -1.21 natural log.
`K39P` has a binding fitness of -1.36 natural log.
With `S47I` the binding fitness was -1.39 natural log.
`E33C` has a binding fitness of -1.5 natural log.
With `L38F` the binding fitness was -1.39 natural log.
`A46F` has a binding fitness of -1.53 natural log.
For `A29P`, the binding fitness was -1.5 natural log.
`M51D` gave a binding fitness of -1.4 natural log.
The binding fitness of `Q41M` is reported as -1.56 natural log.
`E32M` has a binding fitness of -1.41 natural log.
With `K34Y` the binding fitness was -1.48 natural log.
The binding fitness of `S47V` is reported as -1.39 natural log.
The binding fitness of `L38Q` is reported as -1.51 natural log.
For `R30G`, the binding fitness was -1.43 natural log.
The binding fitness of `A46Q` is reported as -1.1 natural log.
`Q41S` gave a binding fitness of -1.57 natural log.
`V56P` has a binding fitness of -1.52 natural log.
The binding fitness of `R53N` is reported as -1.48 natural log.

Set 3
Target: ABI1, truncated, D143A, DHFR fusion (Arabidopsis thaliana)
Technique: DHFR PCA, deep sequencing
Sample: yeast
Setting: methotrexate growth selection, single substitutions
With: (+)-ABA 710 µM
Baseline: wild-type fitted maximum
Reading: higher = stronger binding
Parent: PYL1, truncated, DHFR fusion (Arabidopsis thaliana); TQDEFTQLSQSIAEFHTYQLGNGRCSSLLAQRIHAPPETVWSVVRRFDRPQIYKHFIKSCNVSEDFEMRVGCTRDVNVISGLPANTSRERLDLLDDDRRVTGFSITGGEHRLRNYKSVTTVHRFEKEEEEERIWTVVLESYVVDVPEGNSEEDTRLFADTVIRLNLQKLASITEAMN
`N177A` — result for “relative binding score”: 85.7%.
For `H55Y`, “relative binding score” read 98.8%.
`R24Q` — result for “relative binding score”: 101%.
`T154S` — result for “relative binding score”: 75.9%.
For `K168H`, “relative binding score” read 102%.
For `I162D`, “relative binding score” read 6%.
For `K168S`, “relative binding score” read 103%.
`F56S` — result for “relative binding score”: 24.4%.
For `T106R`, “relative binding score” read 93.1%.
For `V121H`, “relative binding score” read 11.8%.
Under “relative binding score”, `I133K` is recorded as 116%.
For `P37G`, “relative binding score” read 70.2%.
`Q31C` — result for “relative binding score”: 70.2%.
`Q7L`: “relative binding score” 100%.
`M176E` — result for “relative binding score”: 102%.
For `V78Q`, “relative binding score” read 36.7%.
Under “relative binding score”, `P83A` is recorded as 96.8%.

Set 4
Target: RNA binding protein fox-1 homolog 2, RRM domain, GST-SBP tag (RBFOX2, Homo sapiens, UniProt O43251-10, residues 100-194)
Technique: RNA Bind-n-Seq
Form: RNA
Sample: in vitro
Concentration: 365 nM
Setting: natural RNA segment, single round, ends assumed
Baseline: no-protein control
Reading: higher = stronger binding
Constant ends, left off below: GGGAGUUCUACAGUCCGACGAUC … UGGAAUUCUCGGGUGCCAA
Construct (chain): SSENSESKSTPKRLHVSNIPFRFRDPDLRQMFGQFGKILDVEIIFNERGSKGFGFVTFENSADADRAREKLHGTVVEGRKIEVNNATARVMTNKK
Under “RBNS enrichment (R)”, `UGAGGCCGGCAGCCCUUGGGGCUGGGGAGAGCACAGCUUGCCUUGGACUUGCUUCUGAACACGAAUUCUUCGAGAACUAGGCUCAGAUGCUCUGCUGGAGUGUUGGCCUC` is recorded as 0.411.
`ACUCAUUAAUACCUUGCUCUGCAGUUAUUUUCUAGCAGUCUAUAUAGUAGUUUCACAUCUGUAUUAUUUCCAAGUUUAAACUGUAAGCUCCUUGAGGGCAGGGAUUAUAA` — result for “RBNS enrichment (R)”: 0.468.
For `UGAUGACUGUCAGCAUCACUGCCGCAGGCCAUGCUUGACUAAGGUACCUGGUUUUAGCCACAGCCACCUCCUUGUAUGUUACCUUUCAGCUCUGGCCAAGAGUGGGACAG`, “RBNS enrichment (R)” read 0.642.
`CUCAGACUCCUGUGAAGGCACAGCUACAGUUGUGGCCUGAAGGAGGCCCAGCUGGGACUGUGUGCUCCCGGCCUUCUAGCCCCACAGCCCACAGACAUUGGUCUUGAGAG` — result for “RBNS enrichment (R)”: 0.437.
`ACCCCGGGCUGAGACCUCCACAGACAAGGGCUCCCCAUGCUGGCCAUUGGCAGGGGCCCAAGAAGUUCAGUGACCAACUGGUCCUUCCACACCACACCAGCUGGUGCUGC`: “RBNS enrichment (R)” 0.672.
Under “RBNS enrichment (R)”, `GCUGCCUCCAGAAUGGUCUUUCUAAUGUGUGAAUCAGAGCACAGCAGCCCCUGCACAAAGCCCUUCCAUGUCGCCUCUGCAUUCAGGAUCAAACCCCGACCACCUGCCCA` is recorded as 0.487.
`UCCAGGAGCCAGUUGAGCCAGGGCAGCCACAUCCAGGCGUCUCCCUACCCUGGCUCUGCCAUCAGCCUUGAAGGGCCUCGAUGAAGCCUUCUCUGGAACCACUCCAGCCC`: “RBNS enrichment (R)” 0.339.
Under “RBNS enrichment (R)”, `CGAAAUGAAAACUCAGGCAGUUUAGUCCAUAGUGGUACUAUUUUGAUGAUAUUUUCCAUUAAUAAAAUGUAAUUUCAGAUUAUUCGUUUACAAGCUUUAUAAUUUUAUGA` is recorded as 0.522.
For `GGGGAUAACGAGACAGGGAAAUGGCCGCCAUGGUGGCCUGCUCCCUGCCAACACUAAUGUUCCCCACACUAUCUUUGUACAUUUCAGAGGUUUGGUCUUCUGGGUGGUGU`, “RBNS enrichment (R)” read 0.239.
`GAGUCAACAGGAACACCAUAGCACCCACAAAUACUUCUACUUGAAUCAUAUUCUGUGCUUUUUCAAUCACUAGUGCAGAAUAGGCUGCAUUUGACACAGACUGUUAGGCA` — result for “RBNS enrichment (R)”: 0.374.
`CCAAAAAGUCACCUCAGCAGCCUCCCCAGGCGAUACAGAGGGAGAGCCCAGACCACCACAGCUGGCCACGACAUUGCCCUUAAGUAAUAUGCAUUGGCCAGAGAGCCCGG` — result for “RBNS enrichment (R)”: 0.364.
Under “RBNS enrichment (R)”, `ACCCAGUAGCCCAUAGCACAAAUCUUGUGAACAUCUGAUAUGUUUUCAAGUGGCUACCUAGGAUAAGGUUCAUCAUUAGUACCCCCACCCCCACCCCACCGCCAUCUAGA` is recorded as 0.326.

Set 5
Target: Ras GTPase-activating protein-binding protein 1, RRM domain (G3BP1, Homo sapiens, UniProt Q13283)
UniProt Q13283, sequence (whole entry, looked up): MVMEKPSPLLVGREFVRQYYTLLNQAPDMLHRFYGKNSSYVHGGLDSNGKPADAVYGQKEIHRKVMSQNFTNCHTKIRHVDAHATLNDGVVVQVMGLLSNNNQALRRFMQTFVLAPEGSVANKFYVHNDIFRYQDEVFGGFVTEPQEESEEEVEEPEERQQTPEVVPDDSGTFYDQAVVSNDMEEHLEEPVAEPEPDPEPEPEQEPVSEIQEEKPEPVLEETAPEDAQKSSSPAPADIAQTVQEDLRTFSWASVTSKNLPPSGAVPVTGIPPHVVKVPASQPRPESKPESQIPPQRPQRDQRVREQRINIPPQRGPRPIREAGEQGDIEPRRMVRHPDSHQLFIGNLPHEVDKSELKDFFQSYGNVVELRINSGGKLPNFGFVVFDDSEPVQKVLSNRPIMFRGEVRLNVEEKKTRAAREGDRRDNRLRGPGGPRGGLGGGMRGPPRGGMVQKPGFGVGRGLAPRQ
Technique: RNA Bind-n-Seq
Form: RNA
Sample: in vitro
Concentration: 1 µM
Setting: whole 134-nt RNA, ends assumed
With: 150 mM KCl
Baseline: input library
Reading: higher = stronger binding
Constant ends, left off below: GGGAGUUCUACAGUCCGACGAUC … UGGAAUUCUCGGGUGUCAAGG
`UGGGAGGUGGAUUUUGUUUAUUUUUUUAGCUCAUUUCCAGGGGUGGGAAUUUUUUGUUAAUAUGUGUCAUGAAUAAAGUUGUUUUUGAAA` has a log2 enrichment of 1.37.
`UGGGAGGUGGAAUUUGUUUAUUUUUUUAGCUCAUUUCCAGGGGUGGGAAUUUUUUUUUAAUAUGUGUCAUGAAUAAAGUUGUUUUUGAAA` has a log2 enrichment of 1.36.
`AAGUCCUGUGCUACACAUCGUAUGUACCGAAUCGGUUUUUUUGGAAAGGAAAAAGGAAAGUAUUAUGUUACGCCGUUCGGAUCUGCACUU` gave a log2 enrichment of -0.181.
`GUCCUGUGCUACACAUCGUAUGUACCGAAUCGGGGAAAAAAAGGGGAAAGGGGAGGGGAAAGUAUUAUGUUACGCCGUUCGGAUCUGCAC` has a log2 enrichment of 1.1.
The log2 enrichment of `CAAGUCCUGUGCUACACAUCGUAUGUACCGAAUCGGAAAAAAAGGUUUGGAAAGGAAAGUAUUAUGUUACGCCGUUCGGAUCUGCACUUC` is reported as -0.31.
`GUCCUGUGCUACACAUCGUAUGUACCGAAUCGGAAAAAAAGGUUUUUGGUUUUUUUGGAAAGUAUUAUGUUACGCCGUUCGGAUCUGCAC` gave a log2 enrichment of -0.249.
The log2 enrichment of `UCAAGUCCUGUGCUACACAUCGUAUGUACCGAAUCGGUUUGGUUUGGGGUUUGGAAAGUAUUAUGUUACGCCGUUCGGAUCUGCACUUCC` is reported as -0.204.
`UAACUUUAGAGGAGGAUCUAAUGGAUAUGGCAGUGGACGUGGAUUUGGGGAUGGCUAUAAUGGGUAUGGAGGAGGACCUGGAGGUGGCAA` has a log2 enrichment of -0.718.
For `AGUCCUGUGCUACACAUCGUAUGUACCGAAUCAAACCCCCAAACCCCCAAAUUUAAAAAAGUAUUAUGUUACGCCGUUCGGAUCUGCACU`, the log2 enrichment was -0.119.
`CACAGACAACACGCACCCACACAGACACAGAGGGAAGGGGUUGGGAUGGGGACAGGGUGCACAGCAGGGCGGCGUAGGACCCCAGCCCCU` gave a log2 enrichment of -0.226.
`CACAGACAACACGCACCCACACAGACACAGAGGGAAGGGGUUGCGAUGGGGACAGGGUGCACAGCAGGGCGGGGUAGGACCCCAGCCCCU` gave a log2 enrichment of -0.182.
`AGUCCUGUGCUACACAUCGUAUGUACCGAAUCGGAAAAAGGGAAAAAGGGGAAAAAGGAAAGUAUUAUGUUACGCCGUUCGGAUCUGCAC` gave a log2 enrichment of 0.0121.
With `UCAAGUCCUGUGCUACACAUCGUAUGUACCGAAUCGGUUUGGGUUUGGUUUGGGGAAAGUAUUAUGUUACGCCGUUCGGAUCUGCACUUC` the log2 enrichment was -0.255.
The log2 enrichment of `UUCUAUUUCUUUCCUUAAUGUUUUUUUCUUCCCUACUGUUUUAUCCUCCCUUUGCUUUGGAAGGAUAUUGCUGCAUAUCGAGCUAAAGGA` is reported as -0.536.

Repeated from above (set 1):
`E10K` — result for “normalised enrichment score”: 0.129.
Under “normalised enrichment score”, `A4R` is recorded as 0.489.
For `A4D`, “normalised enrichment score” read -0.192.
`M8Q` — result for “normalised enrichment score”: -0.0638.
